# Measurements of several laboratories.
# Every numbered part comes from another study and shows a few of its results, in no order.

# Set 1
# Target: Histone acetyltransferase KAT6A, both winged helices, GST fusion (KAT6A, Homo sapiens, UniProt Q92794, residues 1-181)
# Technique: protein binding microarray
# Molecule type: double-stranded DNA, one strand shown
# Medium: in vitro
# Tested at: not given
# Notes: 8-mer, flanks averaged, mean of 2 arrays, mostly near background
# Relative to: not given
# Direction: higher = stronger binding
# Residues (chain): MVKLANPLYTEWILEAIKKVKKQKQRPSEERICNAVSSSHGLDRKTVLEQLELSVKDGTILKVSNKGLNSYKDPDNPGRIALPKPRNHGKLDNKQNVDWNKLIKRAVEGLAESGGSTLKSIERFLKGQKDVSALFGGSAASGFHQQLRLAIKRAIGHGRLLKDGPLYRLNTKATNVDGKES
Oligonucleotide,E-score
ATCTATGA,-0.159
CGATTCAG,0.0264
GCCACTAC,0.00307
CAACGTGC,-0.123
ACCTCGGA,-0.0284
ATATCCTG,-0.266
GGGCGGAC,0.181
AATTTCAT,-0.141

# Set 2
# Target: Fragile X messenger ribonucleoprotein 1, C-terminal low-complexity region (Fmr1, Mus musculus, UniProt P35922)
# Technique: RNA Bind-n-Seq
# Molecule type: RNA
# Medium: in vitro
# Tested at: 200 nM
# Notes: whole 134-nt RNA, ends assumed
# Added: 150 mM LiCl
# Relative to: input library
# Direction: higher = stronger binding
# Each molecule: 7-deaza-guanosine replaces G
# Shared flanks, not repeated: GGGAGUUCUACAGUCCGACGAUC … UGGAAUUCUCGGGUGUCAAGG
Oligonucleotide,log2 enrichment
UGGCCCUGGUGGCAUGCGGGGAGGAAGAGGUGGCCUCAUGGAUCGUGGUGGUCCCGGUGGAAUGUUCAGAGGUGGCCGUGAUGGAGACAG,-1.04
UGGGAGGUGGAUUGUGUUUAUUUUUUUAGCUCAUUUCCAGGGGUGGGAAUUUUUUUUUAAUAUGUGUCAUGAAUAAAGUUGUUUUUGAAA,1.09
CCUGUGCUACACAUCGUAUGUACCGAAUCGGGGUUUUUGGGGUUUUUUUGGGGUUUGGGGAAAGUAUUAUGUUACGCCGUUCGGAUCUGC,-0.873
UCAAGUCCUGUGCUACACAUCGUAUGUACCGAAUCGGAAAGGAAAAAAAGGAGGAAAGUAUUAUGUUACGCCGUUCGGAUCUGCACUUCC,-0.241
CAAGUCCUGUGCUACACAUCGUAUGUACCGAAUCGGCCCCGGGCCCCGGCCCCGGAAAGUAUUAUGUUACGCCGUUCGGAUCUGCACUUC,-0.723
AGUCCUGUGCUACACAUCGUAUGUACCGAAUCGGGGAAAAGGGGAAAAGGGGAAAAGGAAAGUAUUAUGUUACGCCGUUCGGAUCUGCAC,0.114
CUGUGCUACACAUCGUAUGUACCGAAUCGGGGUUUUUUUGGGGUUUUUUUGGGGAAAGGGGAAAGUAUUAUGUUACGCCGUUCGGAUCUG,1.27
UCCUGUGCUACACAUCGUAUGUACCGAAUCGGGGCCCCCGGGGCCCCCGGGCCCCCGGGGAAAGUAUUAUGUUACGCCGUUCGGAUCUGC,-2.34

# Set 3
# Target: Sal-like protein 4, full length isoform A (SALL4, Homo sapiens, UniProt Q9UJQ4, residues 1-1053)
# UniProt Q9UJQ4, sequence (whole entry, looked up): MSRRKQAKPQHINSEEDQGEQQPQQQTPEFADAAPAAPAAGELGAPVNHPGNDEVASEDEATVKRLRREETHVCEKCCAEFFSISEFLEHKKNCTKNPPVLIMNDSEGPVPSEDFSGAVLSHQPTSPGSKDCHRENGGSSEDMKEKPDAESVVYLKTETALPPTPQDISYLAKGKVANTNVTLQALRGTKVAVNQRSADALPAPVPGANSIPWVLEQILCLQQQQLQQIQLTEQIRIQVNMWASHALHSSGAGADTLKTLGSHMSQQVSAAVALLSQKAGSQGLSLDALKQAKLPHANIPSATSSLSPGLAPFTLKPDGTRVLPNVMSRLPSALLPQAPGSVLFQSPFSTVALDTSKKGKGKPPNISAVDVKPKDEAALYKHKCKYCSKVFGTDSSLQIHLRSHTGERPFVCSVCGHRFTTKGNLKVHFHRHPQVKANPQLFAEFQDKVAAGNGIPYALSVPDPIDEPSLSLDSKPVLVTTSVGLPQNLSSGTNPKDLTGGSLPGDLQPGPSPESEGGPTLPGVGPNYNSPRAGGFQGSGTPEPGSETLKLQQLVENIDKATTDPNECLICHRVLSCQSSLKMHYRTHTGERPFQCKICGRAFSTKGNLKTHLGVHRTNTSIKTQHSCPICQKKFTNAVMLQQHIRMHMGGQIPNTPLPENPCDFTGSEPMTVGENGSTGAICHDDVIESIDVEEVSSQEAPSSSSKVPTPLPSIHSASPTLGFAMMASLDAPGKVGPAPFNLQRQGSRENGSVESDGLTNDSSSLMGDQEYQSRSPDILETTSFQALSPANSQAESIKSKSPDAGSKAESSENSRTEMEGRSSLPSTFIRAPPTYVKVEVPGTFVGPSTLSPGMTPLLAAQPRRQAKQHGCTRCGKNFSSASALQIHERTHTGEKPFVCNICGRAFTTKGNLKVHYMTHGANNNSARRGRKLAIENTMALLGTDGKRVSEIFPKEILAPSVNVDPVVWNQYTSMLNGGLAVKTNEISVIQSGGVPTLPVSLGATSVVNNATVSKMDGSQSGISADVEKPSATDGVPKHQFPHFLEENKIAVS
# Technique: universal PBM
# Molecule type: double-stranded DNA, one strand shown
# Medium: in vitro
# Tested at: 600 nM
# Notes: 8-mer, flanks averaged, mean of replicates
# Direction: higher = stronger binding
Oligonucleotide,E-score
AAGCCTCC,-0.16
GGCACTAC,-0.243
CCTACGTC,-0.0909
CTTGGATA,0.0624
CTTGGCCC,-0.356
ACAAGTGC,-0.082
ACGCACTG,-0.183
CCACGTCC,-0.268

# Set 4
# Target: Replicase polyprotein 1ab, polymerase (rep, Severe acute respiratory syndrome coronavirus 2, UniProt P0DTD1)
# Effect on: enzyme activity
# Mode: inhibitor
# Tested at: 20 µM
Structure (SMILES),inhibition [%]
O=C(O)CNC(=O)c1c(O)c2ccccc2n(Cc2ccccc2)c1=O,2.87
C=C(C)[C@H]1CN[C@H](C(=O)O)[C@H]1CC(=O)O,0.46
CCN1CCN(C(=O)Cc2ccc(Nc3ncc(F)c(Nc4ccc(C(=O)Nc5ccccc5Cl)cc4)n3)cc2)CC1,-5.32
CC#C[C@@H](CC(=O)O)c1ccc(OCc2cccc(-c3ccc(C(F)(F)F)cc3)c2)cc1,3.38
COc1cc(C(=O)NC2CCCNC2)cc(OC)c1OC (centres unmarked),-0.5
Cc1ccc2c(c1)C1(CCN(CCc3nc(-c4ccccc4)oc3C)CC1)OC(=O)N2,1.18
CCN1CCN(C(=O)N[C@@H](C(=O)N[C@@H]2C(=O)N3[C@@H]2SC(C)(C)[C@@H]3C(=O)O)c2ccccc2)C(=O)C1=O,16.8
O=C(NC(O)C(Cl)(Cl)Cl)NC(O)C(Cl)(Cl)Cl (centres unmarked),1.06
COC(=O)C1=C(C)N(C)C(C)=C(C(=O)OC)C1c1ccc(C(F)(F)F)cc1,0.63
COc1cc(F)c(F)c(Nc2ccc(I)cc2F)c1NS(=O)(=O)C1(C[C@H](O)CO)CC1,-1.93
Cc1c(NC(=O)c2cccnc2)c(=O)n(-c2ccccc2)n1C,-0.61
c1ccc(Cn2c(-c3ccc(OC[C@H](C4CCNCC4)n4c(-c5ccccc5)nc5ccccc54)cc3)nc3ccccc32)cc1,25.8
O=C1CSC(c2ccccc2Cl)c2cc(Cl)ccc2N1 (centres unmarked),-15.7
CC(C)CN(C[C@@H](O)[C@H](Cc1ccccc1)NC(=O)O[C@H]1CCOC1)S(=O)(=O)c1ccc(N)cc1,0.65
CCN(CC)S(=O)(=O)c1ccc(C(=O)O)cc1,-7.6
CC(C)(Oc1ccc(Cl)cc1)C(=O)O,0.39
CC[C@H](C)C(=O)O[C@H]1C[C@H](O)C=C2C=C[C@H](C)[C@H](CC[C@@H](O)C[C@@H](O)CC(=O)O)[C@H]21,-0.21
COc1ccc(C[C@@H](C)NC[C@H](O)c2ccc(O)c(NC=O)c2)cc1 (racemic),-0.28
CC#CCC(C)[C@H](O)/C=C/[C@@H]1[C@H]2C/C(=C/CCCC(=O)O)C[C@H]2C[C@H]1O (some centres unmarked),-4.53
CCOC(=O)C1=C(C)NC(C)=C(C(=O)OC)C1c1cccc(Cl)c1Cl (centres unmarked),6.95
CCCC(=O)O,-0.83
COc1ccc(CC(=O)NC(N=C(NC#N)Nc2cccc3ncccc23)C(C)(C)C)cc1OC (centres unmarked),2.57
Cc1ccsc1/C=C/C1=NCCCN1C,-0.05
CC(=O)O[C@H]1C[C@@H]2CC[C@@H]3[C@H](CC[C@@]4(C)[C@H]3C[C@H]([N+]3(C)CCCCC3)[C@@H]4OC(C)=O)[C@@]2(C)C[C@@H]1[N+]1(C)CCCCC1,-6.77
CC(C(=O)O)c1ccc(C(=O)c2cccs2)cc1 (centres unmarked),-0.46

# Set 5
# Cell line: HEK-293T/ACE2
# Tested at: concentration not given
# Time: 16 (unit not given)
# Relative to: vehicle
SMILES,viability [%]
Cc1[nH]cnc1CN1CCc2c(c3ccccc3n2C)C1=O,103
CC[C@@H]([C@H](C)O)n1ncn(-c2ccc(N3CCN(c4ccc(OC[C@@H]5CO[C@@](Cn6cncn6)(c6ccc(F)cc6F)C5)cc4)CC3)cc2)c1=O,98.7
CN(C)c1ccc(C(=C2C=CC(=[N+](C)C)C=C2)c2ccc(N(C)C)cc2)cc1,82.2
CC(=O)O[C@H]1Cc2ccccc2N(C(N)=O)c2ccccc21,103
CC(O)(P(=O)(O)O)P(=O)(O)O,100

# Mixed results
# Mode: inhibitor
Structure (SMILES),target,effect on,organism,time,temperature,added,IC50
C[n+]1c2cc(N)ccc2cc2ccc(N)cc21.Nc1ccc2cc3ccc(N)cc3nc2c1,"Replicase polyprotein 1ab, 3C-like proteinase (rep, Middle East respiratory syndrome-related coronavirus, UniProt K9N7C7)",enzyme activity,MERS-CoV,,,,10 µM
CC(C)Nc1cccnc1N1CCN(C(=O)c2cc3cc(NS(C)(=O)=O)ccc3[nH]2)CC1,"Replicase polyprotein 1ab, main protease (rep, Severe acute respiratory syndrome coronavirus 2, UniProt P0DTD1)",fluorogenic substrate cleavage,,60 min preincubation,37 °C,1 mM DTT,> 20 µM

# Repeated from above (set 4):
Structure (SMILES),inhibition [%]
c1ccc(Cn2c(-c3ccc(OC[C@H](C4CCNCC4)n4c(-c5ccccc5)nc5ccccc54)cc3)nc3ccccc32)cc1,25.8
O=C1CSC(c2ccccc2Cl)c2cc(Cl)ccc2N1 (centres unmarked),-15.7
CC(C)CN(C[C@@H](O)[C@H](Cc1ccccc1)NC(=O)O[C@H]1CCOC1)S(=O)(=O)c1ccc(N)cc1,0.65
CCN(CC)S(=O)(=O)c1ccc(C(=O)O)cc1,-7.6
CC(C)(Oc1ccc(Cl)cc1)C(=O)O,0.39
CC[C@H](C)C(=O)O[C@H]1C[C@H](O)C=C2C=C[C@H](C)[C@H](CC[C@@H](O)C[C@@H](O)CC(=O)O)[C@H]21,-0.21
COc1ccc(C[C@@H](C)NC[C@H](O)c2ccc(O)c(NC=O)c2)cc1 (racemic),-0.28
